Assay results of several laboratories.
Numbered parts are unrelated; each lists some results of a single study. Several values in a cell are separate wells, animals, samples, runs or records.
Chain of UniProt P51957 (whole entry, looked up): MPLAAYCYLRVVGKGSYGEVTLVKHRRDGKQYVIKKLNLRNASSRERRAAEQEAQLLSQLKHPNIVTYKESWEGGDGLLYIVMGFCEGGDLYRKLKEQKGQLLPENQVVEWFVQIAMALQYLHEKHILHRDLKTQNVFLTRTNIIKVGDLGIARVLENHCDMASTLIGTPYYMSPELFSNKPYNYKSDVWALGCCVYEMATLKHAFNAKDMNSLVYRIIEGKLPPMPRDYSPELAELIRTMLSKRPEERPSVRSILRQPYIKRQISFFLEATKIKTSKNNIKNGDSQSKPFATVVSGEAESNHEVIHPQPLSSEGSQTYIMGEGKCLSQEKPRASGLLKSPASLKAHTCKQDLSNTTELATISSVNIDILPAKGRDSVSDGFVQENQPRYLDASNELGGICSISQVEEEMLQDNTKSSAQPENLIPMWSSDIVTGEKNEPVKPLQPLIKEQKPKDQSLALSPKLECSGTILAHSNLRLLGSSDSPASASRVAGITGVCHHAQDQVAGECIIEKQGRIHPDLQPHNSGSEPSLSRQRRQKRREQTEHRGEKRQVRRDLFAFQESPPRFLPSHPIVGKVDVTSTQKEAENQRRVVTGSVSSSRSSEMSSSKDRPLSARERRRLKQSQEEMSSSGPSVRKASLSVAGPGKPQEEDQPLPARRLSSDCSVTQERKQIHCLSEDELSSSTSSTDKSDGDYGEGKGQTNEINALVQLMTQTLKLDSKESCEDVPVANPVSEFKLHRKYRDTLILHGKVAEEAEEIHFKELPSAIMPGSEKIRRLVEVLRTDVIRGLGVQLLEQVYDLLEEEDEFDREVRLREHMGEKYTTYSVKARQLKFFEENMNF
Chain of UniProt P61075 (whole entry, looked up): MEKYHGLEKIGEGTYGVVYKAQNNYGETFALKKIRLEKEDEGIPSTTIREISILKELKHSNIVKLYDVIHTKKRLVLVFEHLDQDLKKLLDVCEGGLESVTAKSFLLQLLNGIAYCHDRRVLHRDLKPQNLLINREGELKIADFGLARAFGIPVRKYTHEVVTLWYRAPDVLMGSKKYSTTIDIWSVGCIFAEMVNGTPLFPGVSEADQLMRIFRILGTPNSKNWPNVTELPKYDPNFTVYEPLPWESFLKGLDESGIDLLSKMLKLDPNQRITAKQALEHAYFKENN
Chain of UniProt Q8WU08 (whole entry, looked up): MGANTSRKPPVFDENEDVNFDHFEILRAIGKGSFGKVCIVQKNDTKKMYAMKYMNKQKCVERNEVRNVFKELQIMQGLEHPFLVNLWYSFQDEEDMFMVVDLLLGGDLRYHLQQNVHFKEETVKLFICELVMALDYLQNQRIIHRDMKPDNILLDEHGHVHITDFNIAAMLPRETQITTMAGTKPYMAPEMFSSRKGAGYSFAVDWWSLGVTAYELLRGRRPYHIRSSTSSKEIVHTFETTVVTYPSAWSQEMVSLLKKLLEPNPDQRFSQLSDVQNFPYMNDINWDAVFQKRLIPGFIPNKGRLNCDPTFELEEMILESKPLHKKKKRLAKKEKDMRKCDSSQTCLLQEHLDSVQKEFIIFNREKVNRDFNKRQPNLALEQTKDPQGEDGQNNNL
Chain of UniProt P16591 (whole entry, looked up): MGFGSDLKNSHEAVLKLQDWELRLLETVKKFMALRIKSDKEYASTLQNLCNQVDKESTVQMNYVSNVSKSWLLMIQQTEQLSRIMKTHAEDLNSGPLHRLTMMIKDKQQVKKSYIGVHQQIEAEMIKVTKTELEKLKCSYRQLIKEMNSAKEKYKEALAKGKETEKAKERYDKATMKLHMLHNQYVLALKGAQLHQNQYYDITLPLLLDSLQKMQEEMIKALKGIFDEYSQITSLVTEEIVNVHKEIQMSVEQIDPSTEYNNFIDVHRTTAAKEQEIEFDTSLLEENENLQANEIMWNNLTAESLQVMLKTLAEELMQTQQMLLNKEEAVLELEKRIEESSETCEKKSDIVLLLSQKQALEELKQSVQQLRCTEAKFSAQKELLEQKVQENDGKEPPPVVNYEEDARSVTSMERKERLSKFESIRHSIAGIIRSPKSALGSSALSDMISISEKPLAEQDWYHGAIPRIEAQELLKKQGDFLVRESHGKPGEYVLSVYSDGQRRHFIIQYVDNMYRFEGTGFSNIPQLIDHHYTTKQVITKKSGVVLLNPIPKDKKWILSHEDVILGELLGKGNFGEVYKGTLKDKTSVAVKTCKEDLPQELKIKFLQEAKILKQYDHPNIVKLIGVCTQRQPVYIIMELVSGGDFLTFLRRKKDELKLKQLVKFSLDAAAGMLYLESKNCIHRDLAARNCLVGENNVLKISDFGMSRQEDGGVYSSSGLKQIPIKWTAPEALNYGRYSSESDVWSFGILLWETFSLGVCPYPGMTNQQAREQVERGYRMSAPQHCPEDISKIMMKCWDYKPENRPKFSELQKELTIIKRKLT
Chain of UniProt Q96PN8 (whole entry, looked up): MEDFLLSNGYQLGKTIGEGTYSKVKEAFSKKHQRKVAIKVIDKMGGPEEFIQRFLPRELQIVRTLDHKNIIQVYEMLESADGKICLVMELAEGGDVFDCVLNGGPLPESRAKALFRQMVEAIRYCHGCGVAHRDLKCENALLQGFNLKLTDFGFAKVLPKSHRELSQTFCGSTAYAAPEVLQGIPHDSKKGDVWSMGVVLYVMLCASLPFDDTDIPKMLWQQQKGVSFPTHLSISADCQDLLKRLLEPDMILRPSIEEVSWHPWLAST
Chain of UniProt P45985 (whole entry, looked up): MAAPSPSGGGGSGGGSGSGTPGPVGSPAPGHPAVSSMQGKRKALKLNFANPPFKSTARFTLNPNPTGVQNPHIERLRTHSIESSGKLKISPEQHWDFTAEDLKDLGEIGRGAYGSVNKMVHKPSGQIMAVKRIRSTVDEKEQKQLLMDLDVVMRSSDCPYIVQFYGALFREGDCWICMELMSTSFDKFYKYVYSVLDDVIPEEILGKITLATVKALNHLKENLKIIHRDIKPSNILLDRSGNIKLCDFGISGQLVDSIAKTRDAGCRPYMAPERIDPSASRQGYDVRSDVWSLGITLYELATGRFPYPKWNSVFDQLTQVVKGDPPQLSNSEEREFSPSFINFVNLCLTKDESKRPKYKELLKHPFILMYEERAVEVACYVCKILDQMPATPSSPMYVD
Chain of UniProt O15146 (whole entry, looked up): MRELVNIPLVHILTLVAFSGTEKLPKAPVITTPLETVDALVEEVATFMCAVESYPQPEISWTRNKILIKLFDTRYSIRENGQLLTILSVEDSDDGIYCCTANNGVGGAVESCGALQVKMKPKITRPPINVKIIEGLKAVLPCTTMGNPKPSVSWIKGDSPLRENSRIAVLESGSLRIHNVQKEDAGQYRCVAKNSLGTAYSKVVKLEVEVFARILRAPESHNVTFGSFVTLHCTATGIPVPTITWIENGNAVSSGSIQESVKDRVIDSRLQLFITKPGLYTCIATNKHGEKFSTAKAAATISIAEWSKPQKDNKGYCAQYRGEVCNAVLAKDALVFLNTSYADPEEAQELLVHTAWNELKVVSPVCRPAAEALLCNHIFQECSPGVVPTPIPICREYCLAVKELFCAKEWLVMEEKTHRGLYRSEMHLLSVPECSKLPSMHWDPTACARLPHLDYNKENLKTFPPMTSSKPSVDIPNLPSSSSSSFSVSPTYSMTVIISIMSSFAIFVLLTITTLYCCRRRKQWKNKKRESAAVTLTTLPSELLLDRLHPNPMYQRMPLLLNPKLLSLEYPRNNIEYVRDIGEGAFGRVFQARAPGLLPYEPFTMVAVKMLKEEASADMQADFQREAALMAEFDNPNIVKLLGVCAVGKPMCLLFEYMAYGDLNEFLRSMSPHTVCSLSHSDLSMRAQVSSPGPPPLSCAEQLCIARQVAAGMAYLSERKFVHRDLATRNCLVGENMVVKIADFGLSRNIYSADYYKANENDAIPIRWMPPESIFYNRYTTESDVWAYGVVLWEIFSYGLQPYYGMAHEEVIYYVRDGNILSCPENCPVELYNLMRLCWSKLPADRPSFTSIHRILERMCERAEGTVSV
Chain of UniProt Q86UX6 (whole entry, looked up): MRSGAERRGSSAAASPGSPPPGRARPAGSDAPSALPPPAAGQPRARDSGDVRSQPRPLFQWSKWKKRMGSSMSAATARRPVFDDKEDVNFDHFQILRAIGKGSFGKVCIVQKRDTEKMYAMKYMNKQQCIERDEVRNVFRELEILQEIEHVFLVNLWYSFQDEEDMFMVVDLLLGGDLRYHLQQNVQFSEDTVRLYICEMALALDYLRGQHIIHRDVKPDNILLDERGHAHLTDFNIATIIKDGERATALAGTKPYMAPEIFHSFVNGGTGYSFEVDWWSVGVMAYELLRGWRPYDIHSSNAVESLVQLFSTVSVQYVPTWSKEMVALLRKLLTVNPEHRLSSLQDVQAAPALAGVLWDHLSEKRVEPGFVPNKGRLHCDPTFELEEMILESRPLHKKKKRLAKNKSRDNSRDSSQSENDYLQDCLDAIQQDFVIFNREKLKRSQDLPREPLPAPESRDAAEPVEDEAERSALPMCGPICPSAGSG
Chain of UniProt P49841 (whole entry, looked up): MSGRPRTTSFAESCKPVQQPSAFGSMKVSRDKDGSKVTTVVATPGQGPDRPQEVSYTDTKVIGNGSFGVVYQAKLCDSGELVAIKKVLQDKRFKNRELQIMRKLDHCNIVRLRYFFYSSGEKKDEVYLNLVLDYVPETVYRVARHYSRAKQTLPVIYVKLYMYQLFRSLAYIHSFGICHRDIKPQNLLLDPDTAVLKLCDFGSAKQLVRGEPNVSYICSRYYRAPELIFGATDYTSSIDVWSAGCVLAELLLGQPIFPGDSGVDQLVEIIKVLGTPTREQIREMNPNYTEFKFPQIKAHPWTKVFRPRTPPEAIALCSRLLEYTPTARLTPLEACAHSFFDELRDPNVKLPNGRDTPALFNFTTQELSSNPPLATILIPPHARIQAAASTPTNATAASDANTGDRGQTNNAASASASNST

Study 1
Cell line: A-375
Concentration: 100 µM
Time: 36 h
SMILES | viability
OC[C@@H](O)[C@H](O)[C@@H](O)CO | 117%
Cc1cccc(Nc2ccccc2C(=O)O)c1C | 72.6%
C#C[C@]1(O)CC[C@H]2[C@@H]3CCC4=CC(=O)CC[C@@H]4[C@H]3CC[C@@]21C | 90.4%
COc1cc2ccc(=O)oc2cc1O | 95.6%
CC(=O)NS(=O)(=O)c1ccc(NC(=O)c2ccccc2C(=O)O)cc1 | 113%
NCCCC(N)(C(=O)O)C(F)F (stereo not shown) | 103%
CCOC(=O)[C@H](CCc1ccccc1)N[C@@H](C)C(=O)N(CC(=O)O)C1Cc2ccccc2C1 | 94.7%
Cc1ccc(-c2cc(C(F)(F)F)nn2-c2ccc(S(N)(=O)=O)cc2)cc1 | -3.05%

Study 2
Cell line: mouse MPNST tumor cells
Method: high-content immunofluorescence imaging
Refers to: nuclear SOX9
Concentration: 10 µM
Time: 12 h
Setting: mean of 2 replicates
Relative to: DMSO control
Direction: higher = more nuclear SOX9
Compound | nuclear SOX9 intensity
Cc1cnc(Nc2ccc(F)cc2Cl)nc1-c1c[nH]c(C(=O)N[C@H](CO)c2cccc(Cl)c2)c1 | 84.5 % of DMSO
CC(C)(N)c1cc(C(=O)N[C@@H]2CCc3ccc(Oc4ccnc5c4CCC(=O)N5)cc3C2)cc(C(F)(F)F)c1 | 47.2 % of DMSO
COc1ccc2[nH]c(=O)c(C(c3nnnn3CCc3ccccc3)N3CCN(C4CCCCC4)CC3)cc2c1 (stereo not shown) | 127 % of DMSO
CC(=O)c1cc(-c2cc(C(=O)NC3CC3)ccc2C)c2ncccn12 | 120 % of DMSO and 115 % of DMSO
CCc1c(C(=O)Nc2cc(S(=O)(=O)N(CC)CC)ccc2O)[nH]c(C)c1C(C)=O | 124 % of DMSO
N[C@H](C(=O)O)[C@H](OCc1ccccc1)C(=O)O (racemic) | 99.2 % of DMSO
Cc1ccc(S(=O)(=O)Nc2ccc3c(c2)c(C(=O)C(F)(F)F)cn3CC(=O)N[C@@H](CC(C)C)C(=O)O)cc1 | 91.1 % of DMSO
O=C(Nc1ccccc1)OCC(CN1CCCCC1)OC(=O)Nc1ccccc1 (stereo not shown) | 123 % of DMSO

Study 3
SMILES: O=C(Nc1cnn(-c2csc(C(=O)NC3COC3)c2)c1)Nc1c(F)cccc1Cl
Read-out: enzyme activity
Concentration: 5 µM
Relative to: untreated control
target | remaining activity [%]
Serine/threonine-protein kinase Nek4 (NEK4, Homo sapiens, UniProt P51957) | 89.1
TGF-beta receptor type-2 (TGFBR2, Homo sapiens, UniProt P37173) | 82.1
MAP/microtubule affinity-regulating kinase 3 (MARK3, Homo sapiens, UniProt P27448) | 98.4
Serine/threonine-protein kinase 32C (STK32C, Homo sapiens, UniProt Q86UX6) | 85.5
G protein-coupled receptor kinase 5 (GRK5, Homo sapiens, UniProt P34947) | 101
Dual specificity mitogen-activated protein kinase kinase 4 (MAP2K4, Homo sapiens, UniProt P45985) | 128
Proto-oncogene tyrosine-protein kinase receptor Ret (RET, Homo sapiens, UniProt P07949) | 98.1
Interleukin-1 receptor-associated kinase 4 (IRAK4, Homo sapiens, UniProt Q9NWZ3) | 97

Study 4
Compound: N#CC1(c2ccccn2)CCN(Cc2cc(C(=O)O)c(=O)n3ccccc23)CC1
Read-out: cell-free assay
Method: competition with immobilised ligand
Concentration: 1 µM
target | remaining binding [%]
Angiopoietin-1 receptor (TEK, Homo sapiens, UniProt Q02763) | 95
Serine/threonine-protein kinase 32A (STK32A, Homo sapiens, UniProt Q8WU08) | 90
Cyclin-dependent kinase 2 homolog (CRK2, Plasmodium falciparum, UniProt P61075) | 68
Glycogen synthase kinase-3 beta (GSK3B, Homo sapiens, UniProt P49841) | 100
Receptor-type tyrosine-protein kinase FLT3 (FLT3, Homo sapiens, UniProt P36888, K663Q) | 100
Phosphatidylinositol 4,5-bisphosphate 3-kinase catalytic subunit alpha isoform (PIK3CA, Homo sapiens, UniProt P42336) | 100
Cyclin-dependent kinase 14 (CDK14, Homo sapiens, UniProt O94921) | 100
Ephrin type-B receptor 6 (EPHB6, Homo sapiens, UniProt O15197) | 73
Muscle, skeletal receptor tyrosine-protein kinase (MUSK, Homo sapiens, UniProt O15146) | 96
Epidermal growth factor receptor (EGFR, Homo sapiens, UniProt P00533, G719C) | 100
Testis-specific serine/threonine-protein kinase 3 (TSSK3, Homo sapiens, UniProt Q96PN8) | 100
Serine/threonine-protein kinase OSR1 (OXSR1, Homo sapiens, UniProt O95747) | 79
Tyrosine-protein kinase Fer (FER, Homo sapiens, UniProt P16591) | 100

Some of these lines once more (study 4):
target | remaining binding [%]
Cyclin-dependent kinase 14 (CDK14, Homo sapiens, UniProt O94921) | 100
Ephrin type-B receptor 6 (EPHB6, Homo sapiens, UniProt O15197) | 73
Muscle, skeletal receptor tyrosine-protein kinase (MUSK, Homo sapiens, UniProt O15146) | 96
